# Measurements of several laboratories.
# Compare with care: the assays were run in different laboratories. Values joined by “and” are separate records of one study, mostly repeats; a detail may differ.
# Effect on: enzyme activity
# Action: inhibitor
# PIK3CA: Phosphatidylinositol 4,5-bisphosphate 3-kinase catalytic subunit alpha isoform (PIK3CA, Homo sapiens, UniProt P42336)
# UniProt P42336, sequence (whole entry, unmodified, looked up): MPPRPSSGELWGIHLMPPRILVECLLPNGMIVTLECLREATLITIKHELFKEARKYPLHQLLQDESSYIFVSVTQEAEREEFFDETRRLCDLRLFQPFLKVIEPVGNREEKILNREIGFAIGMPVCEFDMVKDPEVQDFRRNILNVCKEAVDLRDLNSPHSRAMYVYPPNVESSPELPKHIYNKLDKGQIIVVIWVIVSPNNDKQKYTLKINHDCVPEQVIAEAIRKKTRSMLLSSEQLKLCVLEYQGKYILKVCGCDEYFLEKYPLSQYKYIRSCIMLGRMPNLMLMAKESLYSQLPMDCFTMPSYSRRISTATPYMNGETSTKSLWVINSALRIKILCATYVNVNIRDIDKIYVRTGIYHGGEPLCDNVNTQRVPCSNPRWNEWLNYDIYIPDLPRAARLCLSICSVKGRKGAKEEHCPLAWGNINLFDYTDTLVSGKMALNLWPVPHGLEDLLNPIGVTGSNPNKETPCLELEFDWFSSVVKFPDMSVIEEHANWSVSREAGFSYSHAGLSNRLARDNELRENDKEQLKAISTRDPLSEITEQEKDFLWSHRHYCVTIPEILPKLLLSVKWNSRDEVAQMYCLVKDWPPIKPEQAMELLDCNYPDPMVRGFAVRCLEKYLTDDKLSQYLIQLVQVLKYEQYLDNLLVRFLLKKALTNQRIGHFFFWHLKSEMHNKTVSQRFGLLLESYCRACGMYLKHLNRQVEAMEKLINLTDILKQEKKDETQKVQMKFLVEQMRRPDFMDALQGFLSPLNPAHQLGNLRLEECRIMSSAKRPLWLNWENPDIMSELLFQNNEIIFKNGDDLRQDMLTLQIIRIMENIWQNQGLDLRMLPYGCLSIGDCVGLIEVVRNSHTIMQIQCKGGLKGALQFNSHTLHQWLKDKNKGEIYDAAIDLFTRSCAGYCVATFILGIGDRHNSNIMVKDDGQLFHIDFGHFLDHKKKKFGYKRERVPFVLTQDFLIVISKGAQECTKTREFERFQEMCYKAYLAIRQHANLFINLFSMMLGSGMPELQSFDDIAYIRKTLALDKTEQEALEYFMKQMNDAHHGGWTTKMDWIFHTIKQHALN
# PIK3CA with p85: Phosphatidylinositol 4,5-bisphosphate 3-kinase catalytic subunit alpha isoform, with p85 (PIK3CA, Homo sapiens, UniProt P42336)
SMILES,target,assay,IC50
O=C1NC(=S)S/C1=C\c1ccc([N+](=O)[O-])cc1,PIK3CA,radiometric,22 µM
C[C@@H]1CN=C2c3ccccc3N=C(NC(=O)c3cccnc3)N21,PIK3CA,radiometric,> 1 µM
COC(=O)CCSc1nc2n(n1)C(c1cccc(OC)c1)C(C(=O)Nc1cncc(C)c1)=C(C)N2 (centres unmarked),PIK3CA with p85,ADP detection,0.895 µM
O=C(/C=C/c1ccccc1)Oc1ccc2c(c1)O/C(=C\C=C\c1ccccc1)C2=O,"Phosphatidylinositol 4,5-bisphosphate 3-kinase catalytic subunit alpha isoform, with p85 alpha (PIK3CA, Homo sapiens, UniProt P42336)",ELISA,> 1 µM
N#Cc1c(N)nc(N)nc1OCC1CCCCC1,PIK3CA,,4.5 µM and 7.7 µM
COc1ccc(/C=C2\SC(=S)NC2=O)c2ccccc12,PIK3CA,radiometric,9 µM
Nc1ccc(C(=O)NC2=Nc3ccccc3C3=NCCN23)cn1,PIK3CA,radiometric,0.012 µM
Cc1ccc(CN2C(=O)/C(=N\c3ccc(Cl)cc3Br)c3ccccc32)cc1,PIK3CA,ADP detection,0.00867 µM
COc1cccc(C2C(C(=O)Nc3cccnc3)=C(C)Nc3nc(SCc4ccncc4)nn32)c1 (centres unmarked),PIK3CA with p85,ADP detection,> 10 µM
CCOc1cc(/C=C2\SC(=S)NC2=O)ccc1O,PIK3CA,radiometric,3 µM
Cc1nc(NC(=O)N2CCCC2)sc1-c1csc(C(C)(C)C)n1,"PIK3CA (Homo sapiens, UniProt P42336, E545K)",TR-FRET,0.54 µM
